Measurements from different studies.
Numbered parts are unrelated; each lists some results of a single study. Substitutions count along the parent as printed.

Series 1
Target: Prothrombin, mature alpha-thrombin (F2, Homo sapiens, UniProt P00734)
Technique: aptamer microarray, sandwich
Molecule type: DNA with 2'F-ANA
Sample: in vitro
Concentration: 200 nM
Notes: whole 15-mer aptamer, many near background
Together with: Cy3 exosite-II aptamer, 400 nM
Direction: higher = stronger binding
Sequence: GGTTGGTGTGGTTGG
Modification | mean fluorescence intensity
2'F-ANA at 6 7 9 10 11 12 13 14 | 104 a.u.
2'F-ANA at 2 5 8 9 13 14 | 45.6 a.u.
2'F-ANA at 1 5 9 10 11 13 14 15 | 48 a.u.
2'F-ANA at 1 3 7 8 12 13 14 15 | 146 a.u.
2'F-ANA at 3 5 6 7 8 10 12 | 73.1 a.u.
2'F-ANA at 1 3 6 12 15 | 443 a.u.
2'F-ANA at 5 6 7 10 12 13 14 | 46.6 a.u.
2'F-ANA at 1 4 5 6 7 9 12 13 14 15 | 44.7 a.u.
2'F-ANA at 2 3 4 5 7 8 13 | 94.2 a.u.
2'F-ANA at 3 7 8 9 10 11 13 | 664 a.u.
2'F-ANA at 1 2 3 4 5 8 10 12 13 15 | 176 a.u.
2'F-ANA at 2 3 4 6 11 13 15 | 359 a.u.
2'F-ANA at 2 4 8 11 14 15 | 97.7 a.u.
2'F-ANA at 2 3 4 5 6 8 10 11 | 64.9 a.u.
2'F-ANA at 1 2 4 6 7 8 10 11 12 13 14 15 | 156 a.u.
2'F-ANA at 3 4 8 9 15 | 653 a.u.
2'F-ANA at 2 3 5 7 8 11 12 13 15 | 136 a.u.
2'F-ANA at 2 5 6 10 11 12 15 | 54.7 a.u.
2'F-ANA at 2 6 7 8 14 | 153 a.u.

Series 2
Target: ABI1, truncated, D143A, DHFR fusion (Arabidopsis thaliana)
Technique: DHFR PCA, deep sequencing
Sample: yeast
Notes: methotrexate growth selection, single substitutions
Together with: (+)-ABA 710 µM
Reference: wild-type fitted maximum
Direction: higher = stronger binding
Starting sequence: PYL1, truncated, DHFR fusion (Arabidopsis thaliana); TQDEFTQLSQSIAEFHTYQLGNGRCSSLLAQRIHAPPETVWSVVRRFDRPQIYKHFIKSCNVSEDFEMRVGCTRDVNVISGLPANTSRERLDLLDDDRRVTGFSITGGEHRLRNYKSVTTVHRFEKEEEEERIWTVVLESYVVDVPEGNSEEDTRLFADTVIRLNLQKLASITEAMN
Change | relative binding score
H110K | 6.04%
S150V | 87.4%
Q51A | 92%
R132C | 113%
T39Q | 93.7%
P36G | 92.7%
I57N | 41.3%
W134L | 108%
H34R | 90.1%
D92K | 39.1%
P146E | 47.6%
C72Q | 105%
V118I | 104%
A84I | 11.5%
L82P | 85.9%

Series 3
Target: Histone acetyltransferase KAT6A, both winged helices, GST fusion (KAT6A, Homo sapiens, UniProt Q92794, residues 1-181)
Technique: protein binding microarray
Molecule type: double-stranded DNA, one strand shown
Sample: in vitro
Concentration: not given
Notes: 8-mer, flanks averaged, mean of 2 arrays, mostly near background
Reference: not given
Direction: higher = stronger binding
Target sequence (chain): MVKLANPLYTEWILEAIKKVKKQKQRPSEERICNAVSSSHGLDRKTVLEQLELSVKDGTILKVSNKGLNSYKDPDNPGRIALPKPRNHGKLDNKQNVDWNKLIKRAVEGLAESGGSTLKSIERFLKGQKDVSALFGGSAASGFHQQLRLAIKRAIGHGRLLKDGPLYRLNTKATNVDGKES
Sequence | E-score
AAGGGAGG | -0.187
ACCAGAAA | -0.152
ATTGATGG | -0.172
CTTATTAC | -0.0837
ATAGGTTC | -0.0616
AGTTTAAC | -0.102
ACAAGAGT | -0.31
CAGGCTGA | -0.132
TAACTTAA | -0.0924
ATCTTCCA | -0.101
AGTCGCGC | 0.241
CTATGGGC | -0.149
CATGAATG | -0.0773
AGCCTCCG | -0.0515
ATGTGTGA | -0.152
CCACGTCG | 0.0715
ACCAGATC | -0.0378
CGGACACC | 0.16
CTAACTGA | -0.0271
GCCTTTTA | 0.0106
GTCTATGA | -0.0911

Mixed results
Substance | target | assay | system | setting | how to read | measurement | result
GSPAKKLFTSTGL | human cyclin B2 | peptide binding, yeast competitive growth sequencing | peptide, Saccharomyces cerevisiae, cyclin B2-Cln2 fusion | concentration not given, library 1 | direction not given | binding enrichment score | 0.12
PhoQ, residues 284 288 289 292 302 303 SIHMAM | PhoP, residues 12 14 15 18 19 VHSCL (Escherichia coli, UniProt P23836) | Sort-seq, refers to: YFP reporter | E. coli | PhoQ-PhoP variant library, together with: 10 µM Mg2+ | reference: high Mg2+ state, higher = stronger signaling | fold induction | 5.29
ASPLKKLFTSTGL | human cyclin B2 | peptide binding, yeast competitive growth sequencing | peptide, Saccharomyces cerevisiae, cyclin B2-Cln2 fusion | concentration not given, library 1 | direction not given | binding enrichment score | -0.569

Some of these lines once more (series 1):
Modification | mean fluorescence intensity
2'F-ANA at 3 4 8 9 15 | 653 a.u.
2'F-ANA at 2 3 5 7 8 11 12 13 15 | 136 a.u.
2'F-ANA at 2 3 4 5 6 8 10 11 | 64.9 a.u.
2'F-ANA at 2 4 8 11 14 15 | 97.7 a.u.
2'F-ANA at 5 6 7 10 12 13 14 | 46.6 a.u.
